Measured values collected from several papers.
A part holds a random share of what one study measured. Substitutions count along the parent as printed.

Series 1 — method: competition protein-binding microarray; molecule type: double-stranded DNA, one strand shown; sample: in vitro; tested at: 2 µM; with: Pho4 competitor, 0.05 µM; direction: higher = stronger binding; shared flanks, not repeated: … GTCTTGATTCGCTTGACGCTGCTG
Target: Centromere-binding protein 1, full length, His-tagged (CBF1, Saccharomyces cerevisiae, UniProt P17106, residues 1-351)
Chain of UniProt P17106 (whole entry, looked up): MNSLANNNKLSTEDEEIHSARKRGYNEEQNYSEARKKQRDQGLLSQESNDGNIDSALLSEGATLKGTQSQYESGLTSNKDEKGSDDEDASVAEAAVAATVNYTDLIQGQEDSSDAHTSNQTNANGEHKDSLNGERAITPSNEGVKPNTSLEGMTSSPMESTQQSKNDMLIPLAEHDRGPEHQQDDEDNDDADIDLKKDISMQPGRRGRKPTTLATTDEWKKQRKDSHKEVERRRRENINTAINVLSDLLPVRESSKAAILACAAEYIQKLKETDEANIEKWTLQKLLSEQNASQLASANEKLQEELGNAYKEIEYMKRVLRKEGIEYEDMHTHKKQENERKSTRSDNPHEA
Setting: whole 60-bp probe, lowest competitor level
Strand	fluorescence intensity [a.u.]
ACAGCCACTGGCGGCCGCGTGCTTCCTCCCCTCCCT	81.1
GAGGCACTGATCCATCACGTGGAGGAGAACAATTTA	1500
CGGGGTTAAGTTTGTCACTTAACTTGCTTGCAGCAG	77.1
CTTTCCCGATCTTGTCACAGCACTTTAGCACATTTG	78
GTTACCCTCATAAAGCACGTGGCCGCTTATCGAGAA	2050
AATGATGTGCTTGTCATCGTGGGTAACTTCACCAGC	76
CAGAATTGTCCGAATCGTGTGACGGAAACAGCCTGT	88.8
GTTGTTGGGATCCGTCACGTGTAGGCAAAACGCGTT	4000
CACATCCGGGTTCGTCACACGCGAAAGGCTTCTCAA	76.4
CTTCTGTAAATTTGTCACCCGACTTGACGCGCCCCG	94.2
AAAACTTACTTCCGTCACATGCAAGACGTAGACCCA	382
ATTAAGAGAAGGAAGAGCGTGCTAAGCAGGTTCTTC	65.2
CATACCCAACCTTGTCACTAAACTTAAGATATTTGT	84.6
GGAAACTTTTTAAAGCACGTGGAAGAGATATGAAGG	2030
AAAGAACTACTGTCCCACGTGGATTCGATCCCTCCC	473
TGCGCAACAACTTGTCACTACACTTTATGTCTAGAA	77.9
GCAATACATGAGAACTTCGTGCCAGCAAGGCCCAGT	56.4
GCGTATTTGCCCCAACATGTGGTAGCCAAAACTTCA	108
AGTAAAAGCCACCTTTCCGTGGGTAATCCGCTGAAA	58.7
GTCTTGTCTCATTGTGAAGTGGGTGTCCCCACTTCA	67.5
TGCGCAACAACTTTTCACGTGGACTTATGTCTAGAA	768
GTCAACCTGCTGCCTGGCGTGCTTTGACTCAGTACA	70.8
AAGATCCGGATCAAGACCGTGATGGCCAGCGCGATA	56.5
AATACTTCTGAGTTCTACGTGGTGAAAAAATATTTT	95.6
TGTTGCCAACCATGCTGCGTGCCGAATTAGGCCTAT	66.1

Series 2 — target: UBE2E3 UBC core domain (UniProt Q969T4); method: yeast two-hybrid; sample: yeast; setting: mostly zero background; baseline: not given; direction: higher = stronger interaction
Chain of UniProt Q969T4 (whole entry, looked up): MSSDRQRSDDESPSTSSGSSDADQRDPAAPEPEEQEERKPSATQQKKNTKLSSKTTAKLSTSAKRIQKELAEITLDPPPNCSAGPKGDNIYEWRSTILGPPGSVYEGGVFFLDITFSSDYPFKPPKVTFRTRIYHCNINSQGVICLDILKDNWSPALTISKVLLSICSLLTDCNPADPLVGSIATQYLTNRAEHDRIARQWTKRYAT
B1: RNF130 RING domain (UniProt Q86XS8); chain DKETDPDFDHCAVCIESYKQNDVVRILPCKHVFHKSCVDPWLSEHCTCPMCKLNILKALGIV
B2: TRIM68 RING domain (UniProt Q6AZZ1); chain LVEAIVEEVACPICMTFLREPMSIDCGHSFCHSCLSGLWEIPGESQNWGYTCPLCRAPVQPRNLRP
B3: RMND5B RING domain (UniProt Q96G75); chain MKCWYHSVFACPILRQQTSDSNPPIKLICGHVISRDALNKLINGGKLKCPYCPMEQNPADGK
B4: RNF7 RING domain (UniProt Q9UBF6); chain AICRVQVMDACLRCQAENKQEDCVVVWGECNHSFHNCCMSLWVKQNNRCPLCQQDWVVQRIGK
B5: TRIM74 RING domain (UniProt Q86UV6); chain SLLELEDWLQCPICLEVFKESLMLQCGHSYCKGCLVSLSYHLDTKVRCPMCWQVVDGSSSLP
B6: NHLRC1 RING domain (UniProt Q6VVB1); chain MREAEISLLECKVCFEKFGHRQQRRPRNLSCGHVVCLACVAALAHPRTLALECPFCRRACRGCDTSD
Molecule	lacZ reporter activity
B1 (RNF130 RING domain)	4020
EDVLSKDAGECAICLEELQQGDTIARLPCLCIYHKGCIDEWFEVNRSCPEHPSD (ZNRF2 RING domain (UniProt Q8NHG8))	0
B2 (TRIM68 RING domain)	0
B3 (RMND5B RING domain)	5480
VPADASPDSKCPICLDRFDNVSYLDRCLHKFCFRCVQEWSKNKAECPLCKQPFDSIFHSV (TOPORS RING domain (UniProt Q9NS56))	11700
PLRRLQEEKLCKICMDRHIAVVFIPCGHLVTCKQCAEAVDRCPMCSAVIDFKQRVF (BIRC8 RING domain (UniProt Q96P09))	0
B4 (RNF7 RING domain)	0
B5 (TRIM74 RING domain)	0
B6 (NHLRC1 RING domain)	0
GSEEEEIPFRCFICRQAFQNPVVTKCRHYFCESCALEHFRATPRCYICDQPTGGIFNPA (RNF113B RING domain (UniProt Q8IZP6))	0
AAQLLEEKLTCAICLGLYQDPVTLPCGHNFCGACIRDWWDRCGKACPECREPFPDGAELR (TRIM65 RING domain (UniProt Q6PJ69))	0
FLSKVEETFQCICCQELVFRPITTVCQHNVCKDCLDRSFRAQVFSCPACRYDLGRSYAMQ (UHRF1 RING domain (UniProt Q96T88))	0

Series 3 — method: DHFR PCA, deep sequencing; sample: yeast; with: (+)-ABA 0 µM; baseline: wild-type fitted maximum; direction: higher = stronger binding
Target: ABI1, truncated, D143A, DHFR fusion (Arabidopsis thaliana)
Setting: methotrexate growth selection, single substitutions
Parent: PYL1, truncated, DHFR fusion (Arabidopsis thaliana); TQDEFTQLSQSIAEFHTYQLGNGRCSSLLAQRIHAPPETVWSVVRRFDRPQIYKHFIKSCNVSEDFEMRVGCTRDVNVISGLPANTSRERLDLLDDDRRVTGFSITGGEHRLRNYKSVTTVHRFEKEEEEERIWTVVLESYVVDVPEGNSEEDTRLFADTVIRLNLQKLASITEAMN; partner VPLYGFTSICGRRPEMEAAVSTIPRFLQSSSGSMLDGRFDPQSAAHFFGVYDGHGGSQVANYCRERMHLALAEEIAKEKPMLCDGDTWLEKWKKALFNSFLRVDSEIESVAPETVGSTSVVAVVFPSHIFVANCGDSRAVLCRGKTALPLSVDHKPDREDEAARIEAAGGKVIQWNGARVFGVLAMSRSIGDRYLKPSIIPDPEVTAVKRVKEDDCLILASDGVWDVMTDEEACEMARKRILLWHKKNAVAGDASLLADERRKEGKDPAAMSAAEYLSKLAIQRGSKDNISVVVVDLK
Variant	relative binding score [%]
A84V	29.9
V76I	35.7
R88F	6.89
L138T	3.23
E109Y	-1.3
I57P	-4.07
Q19I	8.87
Q31V	2
G107Y	1.12
Q167P	3.87
S80T	40.3
E130T	30.8
I12G	1.07
I79L	7.07
D95N	2.49
V118D	-1.5
A170N	-10.7
Y18E	3.3
I33H	6.6
E128C	28.1
I105D	0.0333

Series 4 — target: CREB3L2, bZIP domain (human); method: DHFR protein complementation; sample: yeast; baseline: wild-type JUN-FOS pair; direction: higher = stronger binding
Setting: single substitutions, most at no-binding floor
Parent: JUN, bZIP domain (human); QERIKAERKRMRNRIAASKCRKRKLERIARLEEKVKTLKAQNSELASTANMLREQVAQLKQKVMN; partner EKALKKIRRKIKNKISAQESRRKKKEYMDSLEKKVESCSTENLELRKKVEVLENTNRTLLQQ
Variant	binding fitness
A49N	-1.42 natural log
L38I	-1.48 natural log
E54N	-1.63 natural log
K36H	-1.55 natural log
T48C	-1.55 natural log
A29L	-1.46 natural log
A49E	-1.51 natural log
Q55L	-1.29 natural log
L45N	-1.54 natural log
V56W	-1.58 natural log
L52G	-1.52 natural log
K36L	-1.54 natural log
L52P	-1.55 natural log
E33H	-1.39 natural log
Q58P	-1.52 natural log
Q41H	-1.39 natural log
L45F	-1.55 natural log
L45G	-1.5 natural log
Q55M	-1.3 natural log
A29C	-1.28 natural log
A46L	-1.53 natural log
E32R	-1.45 natural log

Excerpt of the above (series 3):
Variant	relative binding score [%]
I12G	1.07
L138T	3.23
Q19I	8.87
Q167P	3.87
E130T	30.8
Y18E	3.3
G107Y	1.12
V118D	-1.5
R88F	6.89
